Published values pooled from the literature.
Lines come from different studies, so protocols differ. “And” joins repeats or separate records; there may be more than shown. ± gives the spread as reported.

| Compound | assay | system | setting | how to read | measurement | value |
| --- | --- | --- | --- | --- | --- | --- |
| CC1=CC(=O)CC(C)(C)[C@@]1(O)/C=C/C(C)=C\C(=O)O | RNA-seq, measured: AT1G03870 | Arabidopsis thaliana Col seedlings | dose not given | relative to: DMSO | log2 fold change | -2.34 |
| N#CC[C@H](C1CCCC1)n1cc(-c2ncnc3[nH]ccc23)cn1 | – | mouse, oxazolone dermatitis, plasma | oral, 90 mg/kg, once daily, unit not given | relative to: vehicle | IL6 level difference | -14.6 |
| CCCCCN1C[C@H](O)[C@@H](O)[C@H](O)[C@@H]1CO | RNA sequencing, measured: 327 disease-specific DEGs | Hexb-/- mouse, hippocampus | 30 mg/kg/day | direction not given | genomic disease score | 0.44 |
| Nc1nc2c(ncn2[C@@H]2O[C@H](COP(=O)(O)OP(=O)(O)OP(=O)(O)O)[C@@H](O)[C@H]2O)c(=O)[nH]1 | binding, MIDAS equilibrium dialysis LC-MS | A2AR-BRIL thermostabilized | concentration not given | relative to: no-protein control | log2 fold change | -0.886 |
| CCOCc1nc(O)c(-c2nnc(Cc3ccc(Cl)cn3)o2)c(O)c1-c1c(OC)cccc1OC | – | renal hypertensive rat | po, 1 mg/kg twice daily, peak exposure | relative to: vehicle | stroke volume change | 35% |
| COc1cc2cc(-c3ccc(CC(=O)Nc4cc(C(C)(C)C(F)(F)F)no4)cn3)cnc2cc1OC | RECIST v1.1 | human other RET-altered solid tumours | 75 mg, phase I | – | best overall response PD | 60% |
| O[C@H]1CCCN[C@@H]1CCCn1cnc2c(Cl)c(Cl)ccc21 | ELISA, measured: Pro-C6 | healthy human volunteers, serum | 25 mg, day 1, multiple ascending dose | – | maximum reduction | 9.05% |
| COc1ncc(-c2nc3c(n2C(C)C)[C@H](c2ccc(Cl)cc2)N(c2cc(Cl)cn(C)c2=O)C3=O)c(OC)n1 | International Working Group criteria | human acute myeloid leukemia patients | oral, 350 to 400 mg, response TF, high-dose, other doses | – | best overall response | 58.3% |
| Cn1cc(Nc2nc(N)nc(-c3cccc(-n4ccc5cc(C6CC6)cc(F)c5c4=O)c3CO)n2)cn1 | CD63 upregulation, anti-IgE-induced | human, multiple ascending dose, whole blood basophils ex vivo | 300 mg twice daily, day 14, 6 h | – | inhibition | 98% |
| NCC(=O)Nc1cncc(-c2nn3c(=O)cc(N4CCNCC4)nc3s2)c1 | ADP-induced platelet aggregation, light transmission aggregometry | human, stable CAD on aspirin, ex vivo platelets | subcutaneous, 0.04 mg/kg, 5 min post-dose, mean value, added: ADP 20 µM | – | inhibition | 20.5% |
| Nc1nc2c(c(=O)[nH]1)N=C(CNc1ccc(C(=O)N[C@@H](CCC(=O)O)C(=O)O)cc1)CN2 | binding, MIDAS equilibrium dialysis LC-MS | A2AR-BRIL thermostabilized | concentration not given | relative to: no-protein control | log2 fold change | 1.34 |
| O=C1CCc2ccc(OCCCCN3CCN(c4cccc(Cl)c4Cl)CC3)cc2N1 | stop or switch frequency | human patients, CYP2D6 ultrarapid metabolizers | dose not given, 3 months, genetic phenotype only | – | treatment discontinuation | 33% |
| N#Cc1ccc2c(c1)[C@H]1CCCN(C(=O)c3ccc4[nH]cnc4c3)[C@H]1C2 | – | human, urine | 240 mg, 24 h, day 1 over day -1 | relative to: placebo and baseline | total urinary corticosteroids | 81.8 % change |
| CC(=O)Oc1cc2c(s1)CCN(C(C(=O)C1CC1)c1ccccc1F)C2 (centres unmarked) | platelet aggregation, light transmission aggregometry | human patients, platelet-rich plasma | 2 h, added: TRAP 15 µM | – | patients with IPA above 90% | 0% |
| N#CCC1CCN(c2nc(Nc3ccc(N4CCC(O)CC4)cc3)c3c(=O)[nH]ncc3n2)CC1 | Olink multiplex | human, serum | 40 mg, day 15, unit not given | relative to: baseline | GIF level change | 1.32 |
| COc1ccc(-c2cncc(N[C@@H](C)c3cccc(NC(=O)c4cncc(C)c4)c3)n2)cc1OC | measured: rno-miR-365-3p | rat SU5416/hypoxia model, lung | dose not given | relative to: SU5416/hypoxia vehicle | fold change | 0.835 |
| CC1(C)OCCn2c1nc1c(N3CCOCC3)nc(-c3cnc(N)nc3)nc12 | RNA sequencing, measured: HALLMARK_INTERFERON_GAMMA_RESPONSE | MB002 tumour | concentration not given | relative to: vehicle, direction not given | GSEA enrichment score | 0.195 |
| C[C@@H](O)CCOC(=O)C[C@@H](C)O | measured: C16:2 acylcarnitine | human, plasma | 60 min, log2-transformed values | – | metabolite level | -7.1 ± 0.72 µmol/L |
| N[C@@H](Cc1ccc(O)c(I)c1)C(=O)O | binding, MIDAS equilibrium dialysis LC-MS | A2AR-BRIL thermostabilized | concentration not given | relative to: no-protein control | log2 fold change | 0.0494 |
| O=C1O[C@H]([C@@H](O)CO)C(O)=C1O | FRAP | – | 80 µM | – | ferric reducing power | 37.6% |
| O=C(O)C(=O)CO | binding, MIDAS equilibrium dialysis LC-MS | A2AR-BRIL thermostabilized | concentration not given | relative to: no-protein control | log2 fold change | -0.686 |
| O=C(O)CNC(=O)Cc1ccccc1 | – | ventricular cardiomyocytes, C57BL/6 mouse | dose not given, 0.556 s | – | sarcomere length | 1.62 µm |
| Cc1n[nH]c2ccc(-c3cc(OC[C@@H](N)Cc4ccccc4)cnc3-c3ccoc3)cc12 | kinase binding, competitor, MIB/MS competition, measured: HRR25 | Candida albicans cell lysate | 1 µM | relative to: DMSO | log2 fold change | -0.114 |
| CN[C@@H]1COc2c(S(=O)(=O)NC(=O)Nc3c4c(cc5c3CCC5)CCC4)cnn2C1 | measured: IL-18 | human participants, whole blood ex vivo | 1800 mg single dose, 8 h, IL-18, circulating, adjusted for, added: LPS/ATP | relative to: baseline | inhibition | 99.2% |
| NC(=O)c1cnc2[nH]ccc2c1N[C@@H]1[C@@H]2CC3C[C@H]1C[C@@](O)(C3)C2 | flow cytometry, measured: CD8+ naive T cells | Japanese healthy subjects, peripheral blood | oral, 100 mg twice daily, day 7 | – | change from baseline | -3.8% |

| Compound | assay | system | setting | how to read | measurement | value |
| --- | --- | --- | --- | --- | --- | --- |
| N#Cc1ccn2c(-c3ccncc3)c(-c3ccc(F)cc3)nc2c1 | kinase binding, competitor, MIB/MS competition, measured: HRR25 | Candida albicans cell lysate | 1 µM | relative to: DMSO | log2 fold change | -0.419 |
| C[C@H](Oc1ccc(Br)cc1-c1ccon1)C(=O)O | muscle velocity recovery cycles | human, tibialis anterior muscle | 1200 mg single dose, 3.5 h post-dose, frequency ramp, first response at 30 Hz | – | peak amplitude change | 120% |
| Cc1cc([C@H]2C[C@H]3[C@@H](C)SC(N)=N[C@@]3(c3ccc(F)cc3F)CO2)on1 | measured: Aβx-40 | Mus musculus wild-type, cerebrospinal fluid | subcutaneous, 50 mg/kg, 7 h | – | Aβ40 level | 0.52 ng/mL |
| NCCCC(=O)O | binding, MIDAS equilibrium dialysis LC-MS | A2AR-BRIL thermostabilized | concentration not given | relative to: no-protein control | log2 fold change | -0.257 |
| Cc1coc([C@H]2C[C@H]3[C@@H](CF)SC(N)=N[C@@]3(c3ccc(F)cc3F)CO2)n1 | measured: Aβx-40 | Mus musculus wild-type, cerebrospinal fluid | subcutaneous, 80 mg/kg, 3 h | – | Aβ40 level | 0.32 ng/mL |
| O=P(O)(O)C(Cl)(Cl)P(=O)(O)O | endothelial activation, immunostaining | mouse, sham, cortical capillaries | dose not given | – | VCAM-1 level | 5.67 MFI and 4.71 MFI and 8.21 MFI and 7.97 MFI |
| Cc1cc(C)c(CNC(=O)c2cc(Cl)c3c(c2C)O[C@@](C)([C@H]2CC[C@H](N(C)C)CC2)O3)c(=O)[nH]1 | IWG 2007 criteria | human, relapsed/refractory peripheral T-cell lymphoma | dose not given | – | best overall response PD | 27% |
| OC[C@H]1O[C@@H](c2ccc(Cl)c(Cc3ccc(O[C@H]4CCOC4)cc3)c2)[C@H](O)[C@@H](O)[C@@H]1O | fasting plasma glucose, exposure-response PK/PD model | type 2 diabetes patients | final model estimate | – | typical Gmax | 0.217% |
| COc1cc(F)c([C@@H]2CNC(=O)[C@H]2NC(=O)Nc2ccccc2)c(F)c1 | terminal haemodynamics | rat, permanent coronary occlusion MI | 1 mg/kg, 1008 h, 6 weeks post-MI | – | stroke volume | 120 ± 26 µL |
| Cc1cn(-c2ccc3n(c2=O)CCN([C@@H](C)[C@@H]2CC[C@H](c4cc(F)c(Cl)cc4C(F)(F)F)O2)C3=O)cn1 | measured: amyloid beta 40 | human, non-elderly, cerebrospinal fluid | 200 mg once daily, 14 days, sampled 336 h | relative to: placebo | change from baseline | -42.4% |
| CCC(C(=O)O)C(=O)O | binding, MIDAS equilibrium dialysis LC-MS | A2AR-BRIL thermostabilized | concentration not given | relative to: no-protein control | log2 fold change | -0.327 |
| CN(C)C(=O)Oc1cccc([N+](C)(C)C)c1 | neuromuscular block reversal | rat | dose not given, 21 (unit not given), added: cisatracurium | relative to: T1 twitch | train-of-four ratio | 97.4 |
| Cc1cc([C@H]2C[C@H]3[C@@H](CF)SC(N)=N[C@@]3(c3ccc(F)cc3F)CO2)on1 | measured: Aβx-40 | Mus musculus wild-type, cerebrospinal fluid | subcutaneous, 100 mg/kg, 1 h | – | Aβ40 level | 0.75 ng/mL |
| Cc1sc2c(c1C)C(c1ccc(Cl)cc1)=N[C@@H](CC(=O)NCCCCCCCCNC(=O)COc1cccc3c1C(=O)N(C1CCC(=O)NC1=O)C3=O)c1nnc(C)n1-2 (some centres unmarked) | flow cytometry | mice, 4T1 tumour, tumour | dose not given | – | regulatory T cells | 8.11% and 8.94% and 9.96% and 8.15% |
| C[C@H]1C[C@H]2CSC(N)=N[C@@]2(c2nc(NC(=O)c3ccc(OC(F)F)cn3)cs2)CO1 | measured: Aβ1-40 | healthy adults, plasma | 50 mg once daily, day 2 | relative to: placebo | percent change from baseline | -83.7% |
| N#Cc1ccc2c(-c3ccncc3)c(-c3ccc(F)cc3)nn2c1 | kinase binding, competitor, MIB/MS competition, measured: RIM8 | Candida albicans cell lysate | 100 nM | relative to: DMSO | log2 fold change | -0.18 |
| COC[C@@H](c1ccc(C(F)(F)F)cc1)N1CCN(C2(C)CCN(C(=O)c3c(C)ncnc3C)CC2)C[C@@H]1C | – | HIV-1 infected patients, plasma | 15 mg, week 16, with optimized background regimen | relative to: baseline | change in HIV-1 RNA | -1.65 log10 copies/mL |
| OC(CCN1CCCCC1)(c1ccccc1)C1CC2C=CC1C2 (centres unmarked) | resting-state EEG | healthy elderly humans | oral, 4 mg, eyes open, LS mean | relative to: baseline | EEG power, Beta, change in Fz/Cz | 3.8% |
| Cc1cnc(N2CC3(CCOCC3)C2)c(C(=O)Nc2ccc(C(=O)N3CCc4cc(C(=O)Nc5c(C)cccc5F)sc4-c4ccccc43)cc2)c1 | measured: LDH | human RSV infection, nasal wash | dose not given, AUC, ITT-IS population | relative to: placebo | inhibition | -0.3% |
| CC(C)NCC(O)c1ccc(O)c(O)c1 (centres unmarked) | – | ventricular cardiomyocytes, C57BL/6 mouse | dose not given, 0.576 s | – | sarcomere length | 1.58 µm |
| N#Cc1ccc2c(c1)[C@H]1CCCN(C(=O)c3ccc4[nH]cnc4c3)[C@H]1C2 | – | human clinical trial | oral, 240 mg once daily, 28 d | – | fasting plasma insulin change | 10.5 pmol/L |
| C[C@@H](O)C=O | binding, MIDAS equilibrium dialysis LC-MS | A2AR-BRIL thermostabilized | concentration not given | relative to: no-protein control | log2 fold change | 0.0911 |
| C=CCn1c(=O)c2cnc(Nc3ccc(N4CCN(C)CC4)cc3)nc2n1-c1ccc2c(n1)[C@@](O)(CC)CC2 | – | SK-OV-3 xenograft, NOD/SCID mice | oral, 80 mg/kg, day 17, once daily intermittent x 3 cycles | – | tumour growth inhibition | 46.6% |
| CC(CC(=O)O)CC(=O)O | binding, MIDAS equilibrium dialysis LC-MS | A2AR-BRIL thermostabilized | concentration not given | relative to: no-protein control | log2 fold change | -0.376 |
| c1ccc(-c2n[nH]cc2-c2ccnc3ccccc23)nc1 | kinase binding, competitor, MIB/MS competition, measured: RTK1 | Candida albicans cell lysate | 10 µM | relative to: DMSO | log2 fold change | 1.26 |

Some of these lines once more:
| Compound | assay | system | setting | how to read | measurement | value |
| --- | --- | --- | --- | --- | --- | --- |
| OC[C@H]1O[C@@H](c2ccc(Cl)c(Cc3ccc(O[C@H]4CCOC4)cc3)c2)[C@H](O)[C@@H](O)[C@@H]1O | fasting plasma glucose, exposure-response PK/PD model | type 2 diabetes patients | final model estimate | – | typical Gmax | 0.217% |
| COc1cc(F)c([C@@H]2CNC(=O)[C@H]2NC(=O)Nc2ccccc2)c(F)c1 | terminal haemodynamics | rat, permanent coronary occlusion MI | 1 mg/kg, 1008 h, 6 weeks post-MI | – | stroke volume | 120 ± 26 µL |
| Cc1cn(-c2ccc3n(c2=O)CCN([C@@H](C)[C@@H]2CC[C@H](c4cc(F)c(Cl)cc4C(F)(F)F)O2)C3=O)cn1 | measured: amyloid beta 40 | human, non-elderly, cerebrospinal fluid | 200 mg once daily, 14 days, sampled 336 h | relative to: placebo | change from baseline | -42.4% |
| CCC(C(=O)O)C(=O)O | binding, MIDAS equilibrium dialysis LC-MS | A2AR-BRIL thermostabilized | concentration not given | relative to: no-protein control | log2 fold change | -0.327 |
| CN(C)C(=O)Oc1cccc([N+](C)(C)C)c1 | neuromuscular block reversal | rat | dose not given, 21 (unit not given), added: cisatracurium | relative to: T1 twitch | train-of-four ratio | 97.4 |
